Results of several laboratories.
Parts stem from different laboratories: compare values within a part only. Positions count from the first letter of the parent shown.

Sample 1
Target: PABPC1L2, full length, GST fusion (mouse, UniProt A0ABA7IW68)
Technique: RNAcompete
Molecule type: RNA
Medium: in vitro
Concentration: 20 nM
Setting: 7-mer, probes averaged, single round
Baseline: mean of 7-mers
Direction: higher = stronger binding
Target sequence (chain): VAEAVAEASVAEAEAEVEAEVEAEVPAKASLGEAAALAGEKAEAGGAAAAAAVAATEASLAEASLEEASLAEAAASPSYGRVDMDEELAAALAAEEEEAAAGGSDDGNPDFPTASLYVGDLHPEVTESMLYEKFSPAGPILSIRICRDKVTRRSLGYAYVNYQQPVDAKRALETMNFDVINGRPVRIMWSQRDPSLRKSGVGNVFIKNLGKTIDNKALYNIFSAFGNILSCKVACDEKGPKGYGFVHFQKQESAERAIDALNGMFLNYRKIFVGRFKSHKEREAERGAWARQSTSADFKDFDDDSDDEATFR
Oligonucleotide | 7-mer Z-score
AUGGGCC | 0.0895
AUUGAUG | -0.175
UAUAAGC | -0.144
UGCGAGU | -0.289
UGUCGCU | -0.264
CCGCCGG | -0.528
CCCAUCG | -0.315
UAUGGCC | -0.17
GCGGAUA | 0.157
CGGUUUU | -0.275
GGUGCCU | -0.0246
CUGCUAG | -0.211
GACGGUU | -0.282
UUAUGUG | -0.0844
CCGUAAG | -0.362
GUCAACG | -0.153
UCUUGAU | -0.353
AUGGGAC | 0.198
UCCUUGU | -0.382
UACUUAA | 0.111
GUACGCU | -0.208
GUUAUUA | -0.166
ACAUGUG | 0.108

Sample 2
Target: CCND3, cyclin fold, Cln2 fusion (human)
Technique: yeast growth competition, sequencing
Medium: yeast
Setting: weak parent motif
Baseline: not given
Direction: higher = stronger binding
Parent: BRCA2 docking peptide (human); PSIKRNLLNEFDR; partner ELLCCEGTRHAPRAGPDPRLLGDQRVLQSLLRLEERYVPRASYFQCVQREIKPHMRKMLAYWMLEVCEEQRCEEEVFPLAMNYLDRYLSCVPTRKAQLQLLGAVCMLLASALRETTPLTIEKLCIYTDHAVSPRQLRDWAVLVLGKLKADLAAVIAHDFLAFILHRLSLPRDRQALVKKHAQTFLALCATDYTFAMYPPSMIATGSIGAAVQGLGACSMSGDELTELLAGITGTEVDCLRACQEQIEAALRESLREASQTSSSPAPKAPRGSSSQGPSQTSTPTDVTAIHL
Variant | normalised enrichment score
R5M | 0.135
R5P | 0.119
D12S | 0.242
R5W | 0.148
D12P | 0.192
L7R | 0.155
S2P | 0.032
F11E | 0.0635
I3F | 0.0557
E10Q | -0.0114
S2V | 0.0969
R5C | 0.21
L8A | 0.124
D12V | 0.182
D12C | 0.16
P1E | 0.142
R5K | 0.191
P1C | 0.212
K4C | 0.265
K4T | 0.0962
I3C | 0.166
P1N | 0.0721
K4A | 0.154
R13D | 0.105
P1D | 0.114

Sample 3
Target: RNA binding protein fox-1 homolog 2, RRM domain, GST-SBP tag (RBFOX2, Homo sapiens, UniProt O43251-10, residues 100-194)
Technique: RNA Bind-n-Seq
Molecule type: RNA
Medium: in vitro
Concentration: 365 nM
Setting: natural RNA segment, single round, ends assumed
Baseline: no-protein control
Direction: higher = stronger binding
Shared flanks, not repeated: GGGAGUUCUACAGUCCGACGAUC … UGGAAUUCUCGGGUGCCAA
Target sequence (chain): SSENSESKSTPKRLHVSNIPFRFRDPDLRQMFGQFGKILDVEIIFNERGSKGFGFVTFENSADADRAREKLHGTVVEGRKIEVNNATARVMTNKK
Oligonucleotide | RBNS enrichment (R)
UUAUGUGUUAAUUUACUUUUAUUAAAAAAGUAUAGUAUAUAUAAUACAAAACAAUAACCCUUCUGGGGUUUCUUGUGGCGGUUGAAAUAGUCCCACAUGUGGUCAUCAGA | 0.414
GUACGGCAAAAGAGUAUUAAUCCACUAUCUCUAGUGCUUGACUUUAAAUCAGUACAGUACCUGUACCUGCACGGUCACCCGCUCCGUGUGUCGCCCUAUAUUGAGGGCUC | 0.342
GCUGGGUAUGGUGGCACAUGCCUAUAGUCUCAGCUACUUGUGAGGCUGAGGCAGGAGGAUUCUUUGAGCCCAGGAGUUUGAGGUUACAGUGAGCCACAAUCACACCAAUC | 0.404
UGGGGUGCCCUCCACUGCCCUCUGUUCAGUAACAGGGCCUUGCUAAUCGGGUUGUCACUCAACAAAAGUGCUUUGGAUUUAAGUUACUAUCCUGGCUUUGCCCAACCUCA | 0.307
UUGCUUCUCUCAAUACAAUAAGACAUUGCAGAAGCAAAAGGGUGGCCUCUGCUCCAGGCAAGGCAGCUGGCUCUGUCUGGGGCAUCGGCCUGGGGCUUGGGUGCCACGUG | 0.43
GAACUGCCAGCAGGGUUGCUUAGGAAAGGAAAUGGACCUUCUCUUCUCUUCUCUUCUUUGAGACAGGGUUUCACUCACUUUGUAACCCUAGCUGGCCUGGAAUUCACUAU | 0.273
UUUUCUUUUUCUCUCCCUUCCUUCUUGGUUUCCCAUAGUAUAAUAAGCAUGCAUACUUUAACUUCUAUAGUUUUCUCCUUUAGAGGGUCGUCUUCAGUUUUAGAGGUUUA | 48.9
CUUCCAGGCCUCUUCCCCUUUCCUCCAUCUCUGGCAACAGUUCUUGGGGUUUGGCAAUUGUUUGGAUUUUUUUUCUUUCUGCAGUUGUGUGUAUGUGUGUUUGUGUGAAG | 3.05
CAUCUCUCAGAGAUGUGAAGCCAGAUCCUCAUGGCAGCGAGGCCCUCUGCAAGAAGCUCAAGGAAGCUCAGGGAAAAUGGACGUAUUCAGAGAGUGUUUGUAGUUCAUGG | 0.599
GCCCUACAAAUAACCAGCCAGCUGUCCUGUGUGGGGACAGUGGGAGCCAAGUGGGAGGGGAAUGUGCCUUCCCUUCACAGCAGGAGCCAAAAGGAGGCUCCACGGGCCUC | 0.518
AGCUAAUGACUGGUUAGAAGAUUGACAAACUAACCAAAAUUUUACACACUCCGGUUAUGUGUGUGAAAGGUUAUAAAAGGAAUGGCCGGGUGCGGUGGCUCACCCCUGUA | 0.415
UGCCUUCACCGGGAGCCACGCCGUGCAUGGCAGCCUUCCCUGGACGAGCGCUCGGUGUUCACACUGAACUGUGGGGUCGACGGGAGGGGUGCCUUUUACAUGUUCUAUUU | 0.242

Sample 4
Target: Ras GTPase-activating protein-binding protein 1, RRM domain (G3BP1, Homo sapiens, UniProt Q13283)
Chain of UniProt Q13283 (whole entry, looked up): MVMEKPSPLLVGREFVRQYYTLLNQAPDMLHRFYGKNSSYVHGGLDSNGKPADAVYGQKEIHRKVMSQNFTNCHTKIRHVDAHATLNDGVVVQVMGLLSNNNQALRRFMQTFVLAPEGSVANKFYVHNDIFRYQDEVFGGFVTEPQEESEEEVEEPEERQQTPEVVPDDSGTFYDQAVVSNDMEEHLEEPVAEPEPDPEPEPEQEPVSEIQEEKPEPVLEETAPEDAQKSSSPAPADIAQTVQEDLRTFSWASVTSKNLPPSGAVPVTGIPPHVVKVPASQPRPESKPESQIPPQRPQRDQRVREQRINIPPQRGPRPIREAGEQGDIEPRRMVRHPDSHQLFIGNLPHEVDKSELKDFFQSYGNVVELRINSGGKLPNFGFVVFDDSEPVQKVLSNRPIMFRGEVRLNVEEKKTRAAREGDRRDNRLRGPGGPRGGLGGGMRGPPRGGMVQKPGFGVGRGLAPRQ
Technique: RNA Bind-n-Seq
Molecule type: RNA
Medium: in vitro
Concentration: 1 µM
Setting: whole 134-nt RNA, ends assumed
Together with: 150 mM KCl
Baseline: input library
Direction: higher = stronger binding
Shared flanks, not repeated: GGGAGUUCUACAGUCCGACGAUC … UGGAAUUCUCGGGUGUCAAGG
Oligonucleotide | log2 enrichment
ACCAUGCAGGUGGGAAACUUUGGGAAGUGGGGCAAGGGGGGGAUAGGGAGGGGGGUAACACUUUGGGAACAGGUGGUCCCAGGUCGUUUC | -0.301
GUCCUGUGCUACACAUCGUAUGUACCGAAUCGGGGAAAAAAAGGGGAGGGGUUUGGGGAAAGUAUUAUGUUACGCCGUUCGGAUCUGCAC | 0.878
AAGUCCUGUGCUACACAUCGUAUGUACCGAAUCGGGGUUUUGGUUUUGGUUUUGGGGAAAGUAUUAUGUUACGCCGUUCGGAUCUGCACU | -0.345
UGGGAGGUGGAUUUUGUUUAUUUUUUUAGCUCAUAUCCAGGGGUGGGAAUUUUUUUUUAAUAUGUGUCAUGAAUAAAGUUGUUUUUGAAA | 1.81
GUCCUGUGCUACACAUCGUAUGUACCGAAUCAAAUUUUUAAACCCCCAAAUUUUUAAAAAAGUAUUAUGUUACGCCGUUCGGAUCUGCAC | -0.354
UGUGCUACACAUCGUAUGUACCGAAUCGGGGCCCCCCCGGGGCCCCCCCGGCCCCCCCGGGGAAAGUAUUAUGUUACGCCGUUCGGAUCU | -0.639
CACAGACAACACGCACCCACACAGACCCAGAGGGAAGGGGUUGGGAUGGGGACAGGGUGCACAGCAGGGCGGGGUAGGACCCCAGCCCCU | 0.779
CCUCAAGUCCUGUGCUACACAUCGUAUGUACCGAAUCGGGGAGGAGGGAGGGAAAGUAUUAUGUUACGCCGUUCGGAUCUGCACUUCCAG | 0.0218
GUUGUAGACACUCCUGGGAUCCUGGACCACCCUCUGGAGGAUAGGAACACCAUCGAGAUGCAGGCCAUCACUGCCCUGGCCCACCUCCGU | -0.288
GUCCUGUGCUACACAUCGUAUGUACCGAAUCGGGCCCCCGGGGCCCCCGGGGCCCCCGGAAAGUAUUAUGUUACGCCGUUCGGAUCUGCA | -1.26
UCAAGUCCUGUGCUACACAUCGUAUGUACCGAAUCGGGGAAGGAAGGGGAAGGGAAAGUAUUAUGUUACGCCGUUCGGAUCUGCACUUCC | 0.532
CUGUGCUACACAUCGUAUGUACCGAAUCGGGCCCCCCCGGGGCCCCCCCGGGCCCCCCCGGAAAGUAUUAUGUUACGCCGUUCGGAUCUG | -0.605
CACAGACAACACGCACCCACACAGACACAGAGGGAAGGGGUUGGGAUGGGGACAGGGUGCACAGCAGGGCGGAGUAGGACCCCAGCCCCU | -0.149
UCAAGUCCUGUGCUACACAUCGUAUGUACCGAAUCGGGGUUUGGUUUGGUUUGGAAAGUAUUAUGUUACGCCGUUCGGAUCUGCACUUCC | -0.226

Sample 5
Target: Histone acetyltransferase KAT6A, both winged helices, GST fusion (KAT6A, Homo sapiens, UniProt Q92794, residues 1-181)
Technique: protein binding microarray
Molecule type: double-stranded DNA, one strand shown
Medium: in vitro
Concentration: not given
Setting: 8-mer, flanks averaged, mean of 2 arrays, mostly near background
Baseline: not given
Direction: higher = stronger binding
Residues (chain): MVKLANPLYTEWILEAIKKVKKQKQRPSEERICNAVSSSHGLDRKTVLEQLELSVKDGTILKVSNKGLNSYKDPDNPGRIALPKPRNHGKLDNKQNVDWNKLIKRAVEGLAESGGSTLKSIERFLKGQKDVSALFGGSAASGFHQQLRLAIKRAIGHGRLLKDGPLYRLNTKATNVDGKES
Oligonucleotide | E-score
CTTAGGCC | -0.126
GTTTGTGA | -0.0401
TGGAGCAA | -0.0768
GTTTTTTA | -0.112
CCCGAGTA | 0.0499
AAACCGAA | -0.0348
CCGGACAG | 0.087
AAAAATAA | -0.156
AATCAGAG | -0.061
GTAAAGTA | 0.0069
GACGATGC | -0.0153
ATACTCCG | 0.149
ATTGGAAA | -0.158
CCCGGGAC | 0.271
CACGCCCC | 0.0788
AGATTCAG | -0.0501
CGCCCGTC | 0.334
AAGCCGAG | 0.0559
ACCCGGTA | 0.188

For quick reference, copied from above (sample 5):
Oligonucleotide | E-score
AAAAATAA | -0.156
AAACCGAA | -0.0348
AGATTCAG | -0.0501
CCCGAGTA | 0.0499
GTTTGTGA | -0.0401
CTTAGGCC | -0.126
GTAAAGTA | 0.0069
AAGCCGAG | 0.0559
ATTGGAAA | -0.158
AATCAGAG | -0.061
GACGATGC | -0.0153
ATACTCCG | 0.149
